Literature values as cited in several papers.
Sequence of UniProt Q8N4C8 (whole entry, looked up): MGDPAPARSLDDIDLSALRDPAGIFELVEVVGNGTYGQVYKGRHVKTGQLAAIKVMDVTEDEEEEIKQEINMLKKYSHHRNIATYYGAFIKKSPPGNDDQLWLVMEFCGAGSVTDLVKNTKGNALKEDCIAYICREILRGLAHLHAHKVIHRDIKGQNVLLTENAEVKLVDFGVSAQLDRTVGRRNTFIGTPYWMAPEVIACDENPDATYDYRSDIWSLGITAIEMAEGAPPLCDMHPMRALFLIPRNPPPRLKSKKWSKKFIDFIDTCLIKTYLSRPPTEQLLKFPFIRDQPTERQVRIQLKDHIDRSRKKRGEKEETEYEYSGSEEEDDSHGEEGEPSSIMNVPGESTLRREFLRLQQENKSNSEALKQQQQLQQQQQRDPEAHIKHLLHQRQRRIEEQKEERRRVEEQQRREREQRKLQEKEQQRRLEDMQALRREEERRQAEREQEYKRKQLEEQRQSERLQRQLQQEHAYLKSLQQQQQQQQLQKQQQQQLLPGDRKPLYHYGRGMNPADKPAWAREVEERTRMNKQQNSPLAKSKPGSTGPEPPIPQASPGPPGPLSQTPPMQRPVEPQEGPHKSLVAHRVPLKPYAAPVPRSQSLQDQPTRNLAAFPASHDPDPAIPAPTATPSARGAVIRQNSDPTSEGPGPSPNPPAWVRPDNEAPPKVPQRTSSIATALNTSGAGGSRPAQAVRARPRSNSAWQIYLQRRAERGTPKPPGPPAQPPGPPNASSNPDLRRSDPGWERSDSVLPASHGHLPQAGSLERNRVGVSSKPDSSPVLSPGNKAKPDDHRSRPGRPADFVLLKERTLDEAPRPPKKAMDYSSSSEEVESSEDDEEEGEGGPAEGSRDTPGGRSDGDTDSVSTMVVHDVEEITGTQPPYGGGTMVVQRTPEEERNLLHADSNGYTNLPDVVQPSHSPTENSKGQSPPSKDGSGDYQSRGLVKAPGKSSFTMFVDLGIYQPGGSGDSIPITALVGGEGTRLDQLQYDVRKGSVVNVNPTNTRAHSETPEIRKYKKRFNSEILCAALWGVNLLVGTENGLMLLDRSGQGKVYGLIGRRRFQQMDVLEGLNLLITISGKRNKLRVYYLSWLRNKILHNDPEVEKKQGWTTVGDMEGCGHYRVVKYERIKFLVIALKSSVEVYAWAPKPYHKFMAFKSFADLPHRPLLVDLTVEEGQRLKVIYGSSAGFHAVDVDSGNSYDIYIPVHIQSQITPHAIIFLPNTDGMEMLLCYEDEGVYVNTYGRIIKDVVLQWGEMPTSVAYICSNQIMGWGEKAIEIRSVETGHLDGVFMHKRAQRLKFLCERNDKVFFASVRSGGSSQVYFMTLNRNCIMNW

| Compound | tested on | test | system | conditions | scale | endpoint | value |
| --- | --- | --- | --- | --- | --- | --- | --- |
| C[C@]12C[C@H](O)[C@H]3[C@@H](CCC4=CC(=O)CC[C@@]43C)[C@@H]1CC[C@@H]2C(=O)CO | – | – | – | – | – | log KOW | < 2 |
| O=C(O)CN1CCNCCN(CC(=O)O)CCNCC1 | – | – | 0.1 M KCl | – | – | log KH1 | 11.7 |
| C[C@]12CCC(=O)C=C1CC[C@@H]1[C@@H]2[C@@H](O)C[C@@]2(C)[C@H]1CC[C@]2(O)C(=O)CO | – | – | – | – | – | log KOW | < 2 |
| C[Si](C)(C)O[Si](C)(C)O[Si](C)(C)C | – | HPLC retention correlation | 1-octanol/water | 25 °C | – | log KOW | 4.8 |
| O=C(O)CN(CC(=O)O)[C@H]1CCCC[C@@H]1N(CC(=O)O)Cc1ccccn1 | – | item: Mn2+ | – | – | – | log K MnL | 14.1 |
| C[Si]1(C)O[Si](C)(C)O[Si](C)(C)O[Si](C)(C)O[Si](C)(C)O1 | – | – | dry 1-octanol/air | 25 °C | – | log KOA | 4.95 |
| CC(C)(c1ccc(O)cc1)c1ccc(O)cc1 | – | – | – | – | – | log Kow | 3.32 |
| CCC(C)n1ncn(-c2ccc(N3CCN(c4ccc(OCC5COC(Cn6cncn6)(c6ccc(Cl)cc6Cl)O5)cc4)CC3)cc2)c1=O (stereo not drawn) | – | – | – | – | – | log P (octanol/water) | 4.47 |
| Nc1cc(C(F)(F)F)c(-c2nc(N3CCOCC3)nc(N3CCOCC3)n2)cn1 | MINK1 (Homo sapiens, UniProt Q8N4C8) | enzyme activity | – | 10 µM | relative to: untreated | remaining activity | 86% |
| O=C(O)CN1Cc2cccc(n2)CN(CC(=O)O)Cc2cccc(n2)C1 | – | protonation constant | 0.1 M KCl | – | – | log KHL | 9.57 |
| C[Si](C)(C)O[Si](C)(C)O[Si](C)(C)O[Si](C)(C)C | – | – | – | – | – | log Kow | 8.14 |
| c1ccc2c(c1)ccc1c3ccccc3ccc21 | – | – | – | experimental mean or OPERA estimate | – | log Kow | 5.81 |

Excerpt of the above:
| Compound | tested on | test | system | conditions | scale | endpoint | value |
| --- | --- | --- | --- | --- | --- | --- | --- |
| C[Si](C)(C)O[Si](C)(C)O[Si](C)(C)C | – | HPLC retention correlation | 1-octanol/water | 25 °C | – | log KOW | 4.8 |
